Published values from different studies.
Parts stem from different laboratories: compare values within a part only.
UniProt P37173, sequence (whole entry, looked up): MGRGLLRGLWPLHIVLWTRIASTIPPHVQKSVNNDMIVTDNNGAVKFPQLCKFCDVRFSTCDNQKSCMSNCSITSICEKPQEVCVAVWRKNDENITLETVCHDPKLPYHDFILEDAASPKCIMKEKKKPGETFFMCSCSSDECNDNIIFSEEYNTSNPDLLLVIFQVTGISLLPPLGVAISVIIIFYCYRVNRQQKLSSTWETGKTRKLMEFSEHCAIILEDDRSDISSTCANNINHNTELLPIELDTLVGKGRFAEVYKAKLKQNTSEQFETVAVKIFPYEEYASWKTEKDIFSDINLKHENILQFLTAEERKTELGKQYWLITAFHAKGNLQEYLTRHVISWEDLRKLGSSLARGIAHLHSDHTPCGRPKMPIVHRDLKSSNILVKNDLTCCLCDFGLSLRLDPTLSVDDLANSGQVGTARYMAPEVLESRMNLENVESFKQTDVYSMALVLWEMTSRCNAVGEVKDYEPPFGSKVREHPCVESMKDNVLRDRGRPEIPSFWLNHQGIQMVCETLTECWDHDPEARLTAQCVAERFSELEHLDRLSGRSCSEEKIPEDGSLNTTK
UniProt Q06418, sequence (whole entry, looked up): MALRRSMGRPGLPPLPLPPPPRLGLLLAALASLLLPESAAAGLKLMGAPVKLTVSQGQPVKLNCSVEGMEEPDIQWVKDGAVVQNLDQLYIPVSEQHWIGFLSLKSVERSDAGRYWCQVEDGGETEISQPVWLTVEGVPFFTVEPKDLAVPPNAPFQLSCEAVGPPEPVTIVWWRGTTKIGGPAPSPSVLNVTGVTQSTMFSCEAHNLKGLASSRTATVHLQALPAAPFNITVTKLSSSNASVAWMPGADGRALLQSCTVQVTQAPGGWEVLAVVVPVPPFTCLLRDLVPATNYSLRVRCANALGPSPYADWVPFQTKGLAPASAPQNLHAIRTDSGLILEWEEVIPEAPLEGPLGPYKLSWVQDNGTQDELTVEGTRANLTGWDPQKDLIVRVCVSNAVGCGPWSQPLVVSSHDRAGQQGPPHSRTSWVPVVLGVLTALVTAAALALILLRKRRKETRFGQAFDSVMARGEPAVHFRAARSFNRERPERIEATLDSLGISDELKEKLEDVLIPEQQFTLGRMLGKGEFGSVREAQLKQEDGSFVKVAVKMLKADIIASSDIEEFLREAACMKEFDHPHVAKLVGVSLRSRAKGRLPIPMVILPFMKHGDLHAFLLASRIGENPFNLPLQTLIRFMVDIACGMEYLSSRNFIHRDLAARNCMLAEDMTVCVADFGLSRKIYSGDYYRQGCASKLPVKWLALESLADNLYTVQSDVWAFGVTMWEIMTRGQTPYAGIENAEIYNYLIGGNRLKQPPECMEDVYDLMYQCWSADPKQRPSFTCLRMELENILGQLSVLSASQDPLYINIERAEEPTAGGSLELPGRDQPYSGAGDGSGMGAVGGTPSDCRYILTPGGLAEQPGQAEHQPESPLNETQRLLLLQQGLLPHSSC
UniProt Q8TBX8, sequence (whole entry, looked up): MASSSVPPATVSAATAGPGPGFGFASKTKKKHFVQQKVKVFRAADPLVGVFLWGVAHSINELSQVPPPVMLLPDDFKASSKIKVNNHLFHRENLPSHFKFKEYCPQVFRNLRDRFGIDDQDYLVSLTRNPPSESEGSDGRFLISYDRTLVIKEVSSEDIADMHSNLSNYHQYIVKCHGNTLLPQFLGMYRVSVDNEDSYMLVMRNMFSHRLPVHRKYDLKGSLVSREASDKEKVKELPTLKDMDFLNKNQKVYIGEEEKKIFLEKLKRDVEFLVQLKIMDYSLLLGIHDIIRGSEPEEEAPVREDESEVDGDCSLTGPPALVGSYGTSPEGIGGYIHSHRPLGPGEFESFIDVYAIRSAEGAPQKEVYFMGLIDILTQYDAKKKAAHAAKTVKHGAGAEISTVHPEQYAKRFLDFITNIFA
UniProt Q8N5S9, sequence (whole entry, looked up): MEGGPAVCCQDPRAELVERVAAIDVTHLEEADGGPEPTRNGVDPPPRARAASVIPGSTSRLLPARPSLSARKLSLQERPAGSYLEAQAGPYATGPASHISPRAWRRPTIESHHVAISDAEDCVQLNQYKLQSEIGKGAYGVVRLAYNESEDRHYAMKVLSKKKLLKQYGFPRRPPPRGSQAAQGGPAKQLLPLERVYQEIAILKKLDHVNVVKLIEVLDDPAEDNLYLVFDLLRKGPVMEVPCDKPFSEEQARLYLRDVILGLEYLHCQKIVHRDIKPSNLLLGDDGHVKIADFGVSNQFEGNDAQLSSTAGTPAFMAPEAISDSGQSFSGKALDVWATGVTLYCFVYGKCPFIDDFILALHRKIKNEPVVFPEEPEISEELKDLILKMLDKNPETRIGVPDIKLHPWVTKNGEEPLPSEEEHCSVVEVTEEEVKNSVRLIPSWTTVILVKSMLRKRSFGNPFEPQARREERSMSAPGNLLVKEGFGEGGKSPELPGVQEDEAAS
UniProt Q9NQU5, sequence (whole entry, looked up): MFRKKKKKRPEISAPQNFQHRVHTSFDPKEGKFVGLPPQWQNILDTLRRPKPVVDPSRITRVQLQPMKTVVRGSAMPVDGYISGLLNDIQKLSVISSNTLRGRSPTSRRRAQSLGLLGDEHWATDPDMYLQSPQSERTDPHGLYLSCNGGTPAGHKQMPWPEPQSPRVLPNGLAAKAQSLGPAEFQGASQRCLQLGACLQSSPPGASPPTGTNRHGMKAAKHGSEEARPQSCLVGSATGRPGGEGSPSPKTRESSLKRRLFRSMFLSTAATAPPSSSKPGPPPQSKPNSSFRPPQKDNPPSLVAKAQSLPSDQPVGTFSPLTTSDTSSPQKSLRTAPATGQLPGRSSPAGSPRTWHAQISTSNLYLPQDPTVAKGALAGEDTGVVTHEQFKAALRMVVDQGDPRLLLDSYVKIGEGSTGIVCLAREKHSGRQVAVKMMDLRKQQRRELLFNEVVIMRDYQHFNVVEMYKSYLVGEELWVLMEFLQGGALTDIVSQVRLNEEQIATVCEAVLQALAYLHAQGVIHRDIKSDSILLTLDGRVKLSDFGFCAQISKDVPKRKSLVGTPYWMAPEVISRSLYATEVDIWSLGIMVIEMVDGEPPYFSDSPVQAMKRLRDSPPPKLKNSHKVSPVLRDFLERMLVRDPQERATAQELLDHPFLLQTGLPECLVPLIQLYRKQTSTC
UniProt Q96SB4, sequence (whole entry, looked up): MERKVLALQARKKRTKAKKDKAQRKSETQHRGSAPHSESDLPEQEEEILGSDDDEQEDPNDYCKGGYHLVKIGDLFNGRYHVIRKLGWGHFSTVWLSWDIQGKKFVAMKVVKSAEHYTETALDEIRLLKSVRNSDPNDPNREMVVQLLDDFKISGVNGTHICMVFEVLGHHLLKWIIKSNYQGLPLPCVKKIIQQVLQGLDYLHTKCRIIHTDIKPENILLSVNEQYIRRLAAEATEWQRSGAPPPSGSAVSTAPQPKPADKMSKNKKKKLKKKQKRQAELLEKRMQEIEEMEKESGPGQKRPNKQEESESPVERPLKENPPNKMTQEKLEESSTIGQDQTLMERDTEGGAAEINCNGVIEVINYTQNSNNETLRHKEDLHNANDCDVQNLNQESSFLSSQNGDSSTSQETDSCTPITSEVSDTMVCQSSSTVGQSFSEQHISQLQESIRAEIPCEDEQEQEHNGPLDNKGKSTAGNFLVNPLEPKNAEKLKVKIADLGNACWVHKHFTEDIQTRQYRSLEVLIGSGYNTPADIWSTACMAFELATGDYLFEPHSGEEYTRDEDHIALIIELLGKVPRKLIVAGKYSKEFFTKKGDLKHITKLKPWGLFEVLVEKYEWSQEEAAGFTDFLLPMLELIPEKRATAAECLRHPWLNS
UniProt Q9NSY1, sequence (whole entry, looked up): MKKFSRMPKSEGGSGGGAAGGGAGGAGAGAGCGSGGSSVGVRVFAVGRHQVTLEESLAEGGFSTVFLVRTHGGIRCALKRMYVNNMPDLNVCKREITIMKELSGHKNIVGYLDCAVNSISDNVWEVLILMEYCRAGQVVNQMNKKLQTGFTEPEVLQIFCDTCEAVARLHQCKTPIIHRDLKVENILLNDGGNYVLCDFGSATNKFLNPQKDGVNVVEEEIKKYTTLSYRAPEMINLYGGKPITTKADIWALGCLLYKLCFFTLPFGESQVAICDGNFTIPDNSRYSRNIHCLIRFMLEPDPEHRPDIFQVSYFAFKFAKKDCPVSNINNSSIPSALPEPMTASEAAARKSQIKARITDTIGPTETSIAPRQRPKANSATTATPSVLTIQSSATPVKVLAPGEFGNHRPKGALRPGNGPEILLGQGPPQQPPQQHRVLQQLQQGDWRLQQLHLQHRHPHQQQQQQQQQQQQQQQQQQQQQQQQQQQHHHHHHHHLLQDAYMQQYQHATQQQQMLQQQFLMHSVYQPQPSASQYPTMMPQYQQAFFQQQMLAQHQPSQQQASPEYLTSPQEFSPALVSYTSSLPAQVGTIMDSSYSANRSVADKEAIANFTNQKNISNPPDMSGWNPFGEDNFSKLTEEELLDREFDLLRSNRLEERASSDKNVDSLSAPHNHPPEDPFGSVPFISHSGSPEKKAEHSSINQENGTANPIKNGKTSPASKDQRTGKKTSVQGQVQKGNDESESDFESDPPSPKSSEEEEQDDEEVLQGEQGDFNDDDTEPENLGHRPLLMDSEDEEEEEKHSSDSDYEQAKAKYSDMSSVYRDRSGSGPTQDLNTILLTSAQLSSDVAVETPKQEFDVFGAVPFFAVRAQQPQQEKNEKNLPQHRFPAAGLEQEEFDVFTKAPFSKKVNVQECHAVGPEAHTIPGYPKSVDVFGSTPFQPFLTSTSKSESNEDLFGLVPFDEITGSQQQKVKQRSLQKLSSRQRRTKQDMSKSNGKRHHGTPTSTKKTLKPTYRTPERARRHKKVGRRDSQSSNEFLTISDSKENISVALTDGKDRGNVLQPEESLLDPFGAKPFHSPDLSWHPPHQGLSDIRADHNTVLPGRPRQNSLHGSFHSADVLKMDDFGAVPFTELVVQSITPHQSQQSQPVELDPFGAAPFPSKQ

Study 1
Compound: CCCOc1ccc([C@@H]2[C@@H](C(=O)O)[C@H](c3ccc4c(c3)OCO4)CN2CC(=O)Nc2c(CC)cccc2CC)cc1
Observed: cell-free assay
Method: competition with immobilised ligand
Tested at: 1 µM
target | remaining binding [%]
FLT3 (Homo sapiens, UniProt P36888, D835V/ITD) | 61
Tyrosine-protein kinase JAK3, JH1 (JAK3, Homo sapiens, UniProt P52333) | 73
BMP2K (Homo sapiens, UniProt Q9NSY1) | 92
PIP4K2C (Homo sapiens, UniProt Q8TBX8) | 94
MAP4K1 (Homo sapiens, UniProt Q92918) | 92
DSTYK (Homo sapiens, UniProt Q6XUX3) | 82
HASPIN (Homo sapiens, UniProt Q8TF76) | 99
ACVR2B (Homo sapiens, UniProt Q13705) | 96
PRKG2 (Homo sapiens, UniProt Q13237) | 83
CDK8 (Homo sapiens, UniProt P49336) | 86
Tyrosine-protein kinase ABL1, non-phosphorylated (ABL1, Homo sapiens, UniProt P00519, H396P) | 89
STK10 (Homo sapiens, UniProt O94804) | 98
PAK5 (Homo sapiens, UniProt Q9P286) | 88
Ribosomal protein S6 kinase alpha-6, C-terminal kinase domain (RPS6KA6, Homo sapiens, UniProt Q9UK32) | 76
EIF2AK1 (Homo sapiens, UniProt Q9BQI3) | 86

Study 2
Structure (SMILES): C[C@H]1CC[C@H](n2c3cnccc3c3cnc(Nc4ccc5c(n4)CCN(C(=O)CO)C5)nc32)CC1
Tested at: 1 µM
target | assay | remaining binding
MAP2K1 (Homo sapiens, UniProt Q02750) | binding, competition with immobilised ligand | 82%
MYLK3 (Homo sapiens, UniProt Q32MK0) | binding, competition with immobilised ligand | 100%
ABL1 (Homo sapiens, UniProt P00519, F317I) | – | 92%
MAPK15 (Homo sapiens, UniProt Q8TD08) | binding, competition with immobilised ligand | 2%
TGFBR2 (Homo sapiens, UniProt P37173) | cell-free assay, competition with immobilised ligand | 100%
TIE1 (Homo sapiens, UniProt P35590) | cell-free assay, competition with immobilised ligand | 89%
MAP3K2 (Homo sapiens, UniProt Q9Y2U5) | binding, competition with immobilised ligand | 82%
PRKACB (Homo sapiens, UniProt P22694) | cell-free assay, competition with immobilised ligand | 100%
DMPK (Homo sapiens, UniProt Q09013) | binding, competition with immobilised ligand | 100%
BTK (Homo sapiens, UniProt Q06187) | cell-free assay, competition with immobilised ligand | 49%

Study 3
SMILES: O=Nc1c(-c2c(O)[nH]c3cc(Br)ccc23)[nH]c2ccccc12
Observed: enzyme activity
Mode: inhibitor
Tested at: 0.5 µM
Reference: control
target | remaining activity
CSNK1E (Homo sapiens, UniProt P49674) | 83.7%
CAMKK1 (Homo sapiens, UniProt Q8N5S9) | 50.5%
CLK1 (Homo sapiens, UniProt P49759) | 93.1%
SRPK1 (Homo sapiens, UniProt Q96SB4) | 94.9%
IGF1R (Homo sapiens, UniProt P08069) | 103%
SIK2 (Homo sapiens, UniProt Q9H0K1) | 31.1%
SGK2 (Homo sapiens, UniProt Q9HBY8) | 73%
TEC (Homo sapiens, UniProt P42680) | 104%
PAK6 (Homo sapiens, UniProt Q9NQU5) | 86.3%
CSNK1D (Homo sapiens, UniProt P48730) | 85.4%
PRKCQ (Homo sapiens, UniProt Q04759) | 105%
EPHA2 (Homo sapiens, UniProt P29317) | 70.9%
RPS6KA3 (Homo sapiens, UniProt P51812) | 65.7%
JAK1 (Homo sapiens, UniProt P23458) | 76.2%
PAK1 (Homo sapiens, UniProt Q13153) | 89.8%
FLT1 (Homo sapiens, UniProt P17948) | 75.1%
Cyclin-dependent kinase 2, with cyclin E (CDK2, Homo sapiens, UniProt P24941) | 15.4%
TYRO3 (Homo sapiens, UniProt Q06418) | 81.6%
MUSK (Homo sapiens, UniProt O15146) | 84.5%
MAP3K20 (Homo sapiens, UniProt Q9NYL2) | 69%
CAMK1 (Homo sapiens, UniProt Q14012) | 96%
CLK2 (Homo sapiens, UniProt P49760) | 91.9%
PRKCZ (Homo sapiens, UniProt Q05513) | 100%

Study 4
SMILES: CC(C)n1cnc(-c2ccc(F)cc2)c1-c1ncc(C(=O)Nc2ccc(N3CCN(C)CC3)cc2)[nH]1
Method: phase 2a clinical trial
Species: patients with idiopathic pulmonary fibrosis
assay | setting | patients with treatment-emergent adverse events
measured: electrocardiogram QT prolonged | 30 mg once daily, Grade 4 | 0%
measured: electrocardiogram QT prolonged | 30 mg once daily, Grade 3 | 0%
measured: left ventricular dysfunction | dose not given, Grade 4, all drug arms | 0%
measured: gastro-oesophageal reflux disease | 30 mg once daily, Grade 3 | 0%
measured: C-reactive protein increased | dose not given, Grade 3, all drug arms total | 0%
measured: C-reactive protein increased | dose not given, Grade 4, all drug arms total | 0%
measured: carbon dioxide decreased | 30 mg once daily, Grade 4 | 0%
measured: protein urine present | 30 mg once daily, Grade 5 | 0%
measured: idiopathic pulmonary fibrosis | 30 mg once daily, Grade 5 | 0%
measured: drug-induced liver injury | 30 mg once daily, Grade 2 | 0%
measured: drug-induced liver injury | dose not given, Grade 5, all drug arms total | 0%
measured: idiopathic pulmonary fibrosis | 60 mg once daily, Grade 4 | 0%
measured: carbon dioxide decreased | 60 mg once daily, Grade 3 | 0%
measured: C-reactive protein increased | 60 mg once daily, Grade 1 | 0%
measured: interstitial lung disease | 30 mg once daily, Grade 3 | 0%
